Results of several laboratories.
A part holds a random share of what one study measured. Changes are numbered by the printed parent chain.

Study 1
Target: RING finger protein unkempt homolog, zinc fingers 1-6, GST-SBP tag (UNK, Homo sapiens, UniProt Q9C0B0, residues 30-357)
UniProt Q9C0B0, sequence (30-357, looked up): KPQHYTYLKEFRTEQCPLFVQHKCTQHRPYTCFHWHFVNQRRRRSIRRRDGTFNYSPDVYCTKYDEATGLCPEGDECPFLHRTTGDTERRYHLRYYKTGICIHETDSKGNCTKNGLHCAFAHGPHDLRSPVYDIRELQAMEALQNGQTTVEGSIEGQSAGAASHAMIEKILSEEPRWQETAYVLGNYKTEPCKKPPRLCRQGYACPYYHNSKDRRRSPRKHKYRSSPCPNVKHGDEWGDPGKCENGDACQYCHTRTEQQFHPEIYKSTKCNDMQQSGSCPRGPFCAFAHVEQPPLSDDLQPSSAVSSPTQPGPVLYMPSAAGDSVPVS
Method: RNA Bind-n-Seq
Form: RNA
Matrix: in vitro
Concentration: not given
Setting: RNA with constant flanks, ends assumed
Relative to: input RNA pool
Direction: higher = stronger binding
Constant ends, left off below: GGGAGUUCUACAGUCCGACGAUC … CAACAGAGGAUUGAGCAUCA
| Strand | bound/input enrichment |
| --- | --- |
| UAACAAUAUAUGAUAUAUAAACCUUAAAUGAAAAAAAUGAUCUAUUGCAGAUAUUUGAUGCCGUUUUCUUUUUUAAAUUAAUCAGAAACCCCACUUCCAUUGUAUUGUCUGACACAUGCU | 2.2 ratio |
| AUAUCUUUCGUUUUGGCUUGGUUCGAGGAAGGGGAAGAAACGAUUACAGCCUUUGCCGAGCCGUUUGUAAUUCUGCUUAUCUUGGUAGCCAAUGCAAUCGUGGGUGUGUGGCAGGAAAGA | 0.334 ratio |
| GAUAACUGUCGAGAAGUGAUUAUUACACCAAAUUCUGCAUGGGGUGGAGAAGGCAGCCCCGGAUGUGGCAUUGGAUAUGGUUAUUUGCAUCGAAUACCUACACGCCCAUUUGAGGAAGGA | 0.573 ratio |
| UCUGAUGGGGACCAUCAGGUUCCAACUACUGCAGGAAACAAAGCAGCUCUUUUAGAUCAAAUCCGAGAGGGUGCUCAGCUAAAAAAAGUGGAGCAGAACAGUCGGCCAGUGUCCUGCUCU | 0.392 ratio |
| UUCUUGCCCAUGGAAUCUCCAGGGGUGGAAAUAGGGGAUGUGGCCACUGGUGGGCCUUGCUCCGUCCCUGCCUUGUUGUCUUAUGGUCUCCACUUGCUUUUCUGUCUUGUCUUUUUCUUU | 0.16 ratio |
| UAUAGUAUAGAUUUUAUUUUUAAGAAGUUUAUAUAAUUCUUUUGUGAACCAAUAUGUAAAACCCGAAUAUUUAUUAAACUAAUAAUAUGUAUUAGUAUCAAUAAAAUAUGUAUUUAUUUU | 3.32 ratio |
| CCCAUGCUUUUAUGGACACUAGGUAAAACGCCUUCAGCUUAAAAUUUUUGUUAAAUAAUUCCGUUUAUUUUAUUGUUAUCUUCCAGGUGUCUAAAUCUCCAGUCUGUCUGUUGUACUGGU | 2.57 ratio |
| UCCUGUGGGUUCUUGGGUGUGUUUGCCACAUCAAGAUUUUAGGGAAGGGGGGUAUAUGUGCCGCCGGGAUGCCGUUUGAAAACAGGCACUCUUCCCCUGAGGAUGGGAAAGGAGCUCUUC | 0.283 ratio |
| GUUCGCCUGUAUCGCAAAGCAUUAGAAGUCUUCCCAGAGUUUGCUGCUGCACAUUCCAAUUCCGCAAGUGUACUGCAACAGCAGGGCAAGCUGCAGGAAGCACUGAUGCACUAUAAAGAA | 0.123 ratio |

Study 2
Target: CCNB2, cyclin fold, Cln2 fusion (human)
Method: yeast growth competition, sequencing
Matrix: yeast
Setting: weak parent motif
Relative to: not given
Direction: higher = stronger binding
Starting sequence: CDC6 docking peptide (human); TLKGRRLVFDNQL
| Variant | normalised enrichment score |
| --- | --- |
| TLKGRILVFDNQL [R6I] | -0.223 |
| TLKGLRLVFDNQL [R5L] | 0.419 |
| FLKGRRLVFDNQL [T1F] | -0.556 |
| TLKGRRLVFDNQC [L13C] | 0.147 |
| TLKGRRLVFDPQL [N11P] | 0.462 |
| TLYGRRLVFDNQL [K3Y] | 0.39 |

Study 3
Target: Ras GTPase-activating protein-binding protein 1, RRM domain (G3BP1, Homo sapiens, UniProt Q13283)
UniProt Q13283, sequence (whole entry, looked up): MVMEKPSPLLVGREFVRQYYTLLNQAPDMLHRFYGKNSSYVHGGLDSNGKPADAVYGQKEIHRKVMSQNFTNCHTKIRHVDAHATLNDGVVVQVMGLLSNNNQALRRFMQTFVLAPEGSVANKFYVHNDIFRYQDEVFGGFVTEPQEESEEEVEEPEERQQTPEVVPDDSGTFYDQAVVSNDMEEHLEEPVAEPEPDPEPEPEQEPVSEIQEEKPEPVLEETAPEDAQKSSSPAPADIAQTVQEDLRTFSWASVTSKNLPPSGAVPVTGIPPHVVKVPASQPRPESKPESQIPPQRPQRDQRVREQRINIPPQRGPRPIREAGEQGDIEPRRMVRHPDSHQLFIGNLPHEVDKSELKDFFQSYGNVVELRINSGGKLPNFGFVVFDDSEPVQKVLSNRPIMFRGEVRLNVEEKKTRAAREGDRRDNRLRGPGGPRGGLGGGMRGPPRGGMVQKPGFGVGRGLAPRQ
Method: RNA Bind-n-Seq
Form: RNA
Matrix: in vitro
Concentration: 1 µM
Setting: whole 134-nt RNA, ends assumed
With: 150 mM KCl
Relative to: input library
Direction: higher = stronger binding
Constant ends, left off below: GGGAGUUCUACAGUCCGACGAUC … UGGAAUUCUCGGGUGUCAAGG
| Strand | log2 enrichment |
| --- | --- |
| CCUGUGCUACACAUCGUAUGUACCGAAUCGGGUUUUUUGGGGUUUUUUGGGUUUUUUGGGGAAAGUAUUAUGUUACGCCGUUCGGAUCUG | -0.283 |
| AAGUCCUGUGCUACACAUCGUAUGUACCGAAUCGGCCCCGGCCCCGGGGCCCCGGGAAAGUAUUAUGUUACGCCGUUCGGAUCUGCACUU | -0.518 |
| CCUGUGCUACACAUCGUAUGUACCGAAUCGGGAAAAAAAGGGAAAAAAAGGAAAAAAAGGAAAGUAUUAUGUUACGCCGUUCGGAUCUGC | 0.13 |
| CUGUGCUACACAUCGUAUGUACCGAAUCGGGAAAAAAAGGGGAAAAAAAGGGAAAAAAAGGAAAGUAUUAUGUUACGCCGUUCGGAUCUG | 0.127 |
| AGUCCUGUGCUACACAUCGUAUGUACCGAAUCGGUUUUUGGGGUUUUUGGGUUUUUGGAAAGUAUUAUGUUACGCCGUUCGGAUCUGCAC | -0.142 |
| UGGGAGGUGGAUUUUGUUUAUUUUUUUAGCUCAUUUCCAGGAGUGGGAAUUUUUUUUUAAUAUGUGUCAUGAAUAAAGUUGUUUUUGAAA | 2.42 |
| GCAGGAAGUAAAAACAAAUGGAAAUGCUUCGGAUAGUGGCAGGGGUGGGGGUUGCUAAAGAAAGGGUGGGAUGGGAGUGGGUAAAGAGUU | 0.354 |
| UCCUGUGCUACACAUCGUAUGUACCGAAUCGGGAAAAAAGGGAAAAAAGGGGAAAAAAGGAAAGUAUUAUGUUACGCCGUUCGGAUCUGC | -0.0249 |
| CACAGACAACACGCACCCACACAGACACAGAGGGAAGGGGUUGGGAUGGGGACAGGGUGCACAGCAGGGCGGGGUAGGACCCCAGCCACU | -0.346 |
| CAAGUCCUGUGCUACACAUCGUAUGUACCGAAUCGGGAAAGGGAAAGGGAAAGGGGAAAGUAUUAUGUUACGCCGUUCGGAUCUGCACUU | 0.631 |

Further values, each from its own experiment
| Molecule | target | assay | system | conditions | how to read | quantity | value |
| --- | --- | --- | --- | --- | --- | --- | --- |
| PhoQ, residues 284 288 289 292 302 303 TNASYF | PhoP, residues 12 14 15 18 19 SPWRL (Escherichia coli, UniProt P23836) | Sort-seq, item: YFP reporter | E. coli | PhoQ-PhoP variant library, with: 10 µM Mg2+ | relative to: high Mg2+ state, higher = stronger signaling | fold induction | 2.55 |
